Assay results collected from several papers.
Lines come from different studies, so protocols differ. “And” joins repeats or separate records; there may be more than shown. Numbers after ± are the reported error. Converted amounts (≈) assume the structure as drawn.

Compound | organism | test | test system | setting | scale | endpoint | result
OCC1=C(F)[C@@H](n2nnc3c(NO)ncnc32)[C@H](O)[C@@H]1O | influenza virus | viral cytopathic effect, MTT | MDCK | 72 h | – | EC50 | > 100 µM
C=C(CN(C(=O)c1c(C(F)F)nn(C)c1F)C1CC1)c1ccc(Cl)cc1Cl | Fusarium graminearum | spore germination | – | – | – | EC50 | 0.0814 µg/mL
O=C(NCCc1ncc(C(F)(F)F)cc1Cl)c1ccccc1C(F)(F)F | Fusarium graminearum | fungal growth, inhibitor | – | 50 µg/mL | – | inhibition | 88.1 ± 2.1%
Nc1ncnc2c1nnn2[C@@H]1C(F)=C(CO)[C@@H](O)[C@H]1O | influenza virus | viral cytopathic effect, MTT | MDCK | 72 h | – | EC50 | > 100 µM
O=c1[nH]c(=O)n([C@H]2C[C@H](O)[C@@H](CO)O2)cc1/C=C/Br | vesicular stomatitis virus | viral replication | HEL | – | – | EC50 | > 250 µM
O=C(NNc1ccc(F)c(F)c1)c1nnc(CC23CC4CC(CC(C4)C2)C3)o1 | Fusarium graminearum | fungal growth, inhibitor | – | 50 µg/mL | – | inhibition | 100%
CNc1ncnc2c1nnn2[C@@H]1C(F)=C(CO)[C@@H](O)[C@H]1O | influenza virus | viral cytopathic effect, MTT | MDCK | 72 h | – | EC50 | > 100 µM
O=C(NNc1ccccc1)c1nnc(CC23CC4CC(CC(C4)C2)C3)o1 | Fusarium graminearum | fungal growth, inhibitor | – | 50 µg/mL | – | inhibition | 53.2 ± 2.6%
CS(=O)(=O)Nc1ncn(-c2cc(F)c(COc3ccc(OS(=O)(=O)F)cc3)c(F)c2)n1 | Mycobacterium tuberculosis | time-kill | H37Rv | 10 × MIC, 10 days | – | CFU reduction | 6 log10 CFU
COc1cc(NC(=O)Cn2ccc3cc(F)c(-c4cnn(C)c4)cc32)cc(OC)c1OC | Plasmodium falciparum | – | recrudescent Dd2-B2, PfATP4 V178I | flask 1 | baseline: Dd2-B2 | IC90 fold shift | 136
O=c1[nH]cnc2c1nnn2[C@@H]1C(F)=C(CO)[C@@H](O)[C@H]1O | influenza virus | viral cytopathic effect, MTT | MDCK | 72 h | – | EC50 | > 100 µM
O=C(NNc1cccc(Cl)c1)c1nnc(CC23CC4CC(CC(C4)C2)C3)o1 | Fusarium graminearum | fungal growth, inhibitor | – | – | – | EC50 | > 50 µg/mL
Nc1nc2c(ncn2COCCO)c(=O)[nH]1 | vesicular stomatitis virus | viral replication | HEL | – | – | EC50 | > 250 µM
Nc1ncc(Br)c2c1ncn2[C@@H]1C=C(CO)[C@@H](O)[C@H]1O | vesicular stomatitis virus | viral replication | wild type GFP reporter | – | – | IC90 | < 1 µM
OC(Cn1cncn1)(Cn1cncn1)c1ccc(F)cc1F | Saccharomyces cerevisiae | cell growth | Pdr5 deleted, Cdr1 overexpressed | 2^5.907 µg/mL | – | OD600 | 0.333 and 0.453 and 0.452
CO/C=C(/C(=O)OC)c1ccccc1Oc1cc(Oc2ccccc2C#N)ncn1 | Fusarium graminearum | fungal growth, inhibitor | – | 50 µg/mL | – | inhibition | 64.8 ± 3.1%
CC[C@H](C)[C@H](NC(=O)[C@H](CC(C)C)NC(=O)[C@H](CCCNC(=N)N)NC(=O)[C@H](CC(C)C)NC(=O)[C@@H](NC(=O)[C@@H](NC(=O)[C@H](CCCNC(=N)N)NC(=O)[C@@H](NC(=O)[C@@H](NC(=O)[C@H](CCCNC(=N)N)NC(=O)[C@H](CCCNC(=N)N)NC(=O)[C@H](CCCNC(=N)N)NC(=O)[C@H](CO)NC(=O)[C@@H](N)CCCNC(=N)N)[C@@H](C)CC)[C@@H](C)CC)[C@@H](C)CC)C(C)C)C(=O)N[C@@H](CCCNC(=N)N)C(=O)N[C@@H](CCCNC(=N)N)C(=O)N[C@@H](CO)C(=O)N[C@@H](C)C(=O)N[C@@H](CCCNC(=N)N)C(N)=O | Escherichia coli | – | – | – | – | MIC range | 1 to 2 µM (≈ 2.45 to 4.89 µg/mL)

Repeated from above:
Compound | organism | test | test system | setting | scale | endpoint | result
O=C(NNc1ccccc1)c1nnc(CC23CC4CC(CC(C4)C2)C3)o1 | Fusarium graminearum | fungal growth, inhibitor | – | 50 µg/mL | – | inhibition | 53.2 ± 2.6%
COc1cc(NC(=O)Cn2ccc3cc(F)c(-c4cnn(C)c4)cc32)cc(OC)c1OC | Plasmodium falciparum | – | recrudescent Dd2-B2, PfATP4 V178I | flask 1 | baseline: Dd2-B2 | IC90 fold shift | 136
